Experimental data collected from several papers.
Numbered parts are unrelated; each lists some results of a single study. Positions count from the first letter of the parent shown.

Study 1 — method: protein-binding microarray; form: double-stranded DNA, one strand shown; medium: in vitro; tested at: not given; reading: higher = stronger binding; quantity: E-score
Target: Protein max, full length (MAX, Homo sapiens, UniProt P61244-2, residues 1-151)
Notes: k-mer, scored over probes, only values ≥0.25
AATGTGCG: 0.346
ACGCGCTG: 0.316
GCATGGGC: 0.421
ACGTGGAC: 0.451
AACCACCT: 0.265
ATCCACGC: 0.378
GGCATGGA: 0.311
GGTCACAC: 0.268

Study 2 — Change: P37N; method: DHFR PCA, deep sequencing; medium: yeast; baseline: wild-type fitted maximum; reading: higher = stronger binding; quantity: relative binding score
Target: ABI1, truncated, D143A, DHFR fusion (Arabidopsis thaliana)
Notes: methotrexate growth selection, single substitutions
Parent: PYL1, truncated, DHFR fusion (Arabidopsis thaliana); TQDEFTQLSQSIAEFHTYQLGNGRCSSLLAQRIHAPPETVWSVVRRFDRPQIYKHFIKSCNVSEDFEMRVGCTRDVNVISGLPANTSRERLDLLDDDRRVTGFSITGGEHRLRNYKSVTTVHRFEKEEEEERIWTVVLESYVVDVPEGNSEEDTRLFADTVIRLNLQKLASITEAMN; partner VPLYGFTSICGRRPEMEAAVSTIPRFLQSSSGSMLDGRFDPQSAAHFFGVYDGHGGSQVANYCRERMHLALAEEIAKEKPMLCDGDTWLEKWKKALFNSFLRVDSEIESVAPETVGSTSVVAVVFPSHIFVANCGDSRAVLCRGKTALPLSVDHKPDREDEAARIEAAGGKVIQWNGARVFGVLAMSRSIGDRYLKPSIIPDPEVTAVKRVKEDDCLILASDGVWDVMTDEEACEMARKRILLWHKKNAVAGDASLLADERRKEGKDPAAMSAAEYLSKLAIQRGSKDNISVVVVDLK
added: (+)-ABA 0 µM: -2.87%
added: (+)-ABA 1.4 µM: 6.77%
added: (+)-ABA 4.8 µM: -10.4%
added: (+)-ABA 17 µM: 16.3%
added: (+)-ABA 710 µM: 69.4%
added: (+)-ABA 58 µM: 26.2%

Study 3 — target: CCND3, cyclin fold, Cln2 fusion (human); method: yeast growth competition, sequencing; medium: yeast; notes: weak parent motif; baseline: not given; reading: higher = stronger binding; quantity: normalised enrichment score
Parent: viral docking peptide; KGVKRKLFAEDSS; partner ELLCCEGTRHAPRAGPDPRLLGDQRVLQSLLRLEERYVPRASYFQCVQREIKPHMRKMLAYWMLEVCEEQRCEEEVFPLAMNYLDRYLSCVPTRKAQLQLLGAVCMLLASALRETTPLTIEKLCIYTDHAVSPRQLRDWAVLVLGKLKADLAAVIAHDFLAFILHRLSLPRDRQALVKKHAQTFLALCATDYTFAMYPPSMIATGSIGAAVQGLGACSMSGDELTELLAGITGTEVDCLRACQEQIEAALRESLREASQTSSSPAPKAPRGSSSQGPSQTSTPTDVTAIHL
D11K: -0.0329
F8E: 0.575
R5A: 0.135

Other studies, line by line
RQSSGSSSSGF  binding (HLA class I histocompatibility antigen, A alpha chain, allele A*25:01 (Homo sapiens, UniProt P04439); peptide-MHC binding; peptide; concentration not given): inactive

Some of these lines once more (study 2):
added: (+)-ABA 1.4 µM: 6.77%
added: (+)-ABA 710 µM: 69.4%
added: (+)-ABA 4.8 µM: -10.4%
